Published values gathered from unrelated publications.
Each line is one published result; not all experiments were run side by side. Values joined by “and” are separate records of one study, mostly repeats; a detail may differ. ± gives the spread as reported.

SMILES	cell line	assay	system	setting	scale	quantity	result
OCc1nc2ccc(NCc3ccc(SC(F)(F)F)cc3)cc2[nH]1	sample A patient iPSC NPCs	cell protection, MTS	–	up to 100 µM, 24 h	–	Emax	15%
COc1cc2ncnc(Cc3cccc(-c4ccncc4)c3)c2cc1OC	A549	mitochondrial oxygen consumption, Seahorse XF96	–	10 µM	–	inhibition	8%
CCCCN1CCN(c2ccc3nc(-c4ccc5nc(-c6cc(OC)ccc6OC)[nH]c5c4)[nH]c3c2)CC1	KM12	SRB	–	10 µM, 48 h	–	growth percent	107%
COc1cnc2cccc(N3CCc4c(cc(Cn5ccnc5C)cc4-c4cn(C)nc4C(F)(F)F)C3=O)c2c1	DB	cell growth	–	120 h	–	EC50	5.32 µM
CCCCc1nc(Cl)c(CO)n1Cc1ccc(-c2ccccc2-c2nn[nH]n2)cc1	human PBMC	RNA-seq, item: CD163L1 mRNA	–	10 µg/mL, 24 h	relative to: untreated control	log2 fold change	-2.85
Cn1cc(-c2ccc(F)c(C(F)(F)F)c2)nc1C1CCN(c2ncnc3[nH]ncc23)CC1	SK-OV-3	ATP	–	0.1 µM, 4 days, 3D gellan gum culture	relative to: untreated	relative cell number	97.4%
CC(C)NCC(O)c1ccc(O)c(O)c1 (stereo not drawn)	mouse ventricular cardiomyocytes	–	–	dose not given, 0.359 s	–	sarcomere length	1.8 µm
Cc1cccc(-c2[nH]c(CNc3ccccc3F)nc2-c2ccc3ncnn3c2)n1	RPMI-8226	flow cytometry, item: CD108	–	concentration not given	relative to: comparator compound alone	surface marker level	54.6%
Cn1cc(-n2cnc3c(NCc4nc5cc(Cl)c(Cl)cc5[nH]4)nc(N4CCOCC4)nc32)cn1	MDA-MB-231	qRT-PCR, item: BRCA1	–	0.05 µM, 6 h, unit not given	relative to: DMSO	mRNA level	0.374 and 0.255 and 0.337
C[C@H]1CN(C2COC2)CCN1c1ccc(Nc2cc(-c3ccnc(N4CCn5c(cc6c5CC(C)(C)C6)C4=O)c3CO)cn(C)c2=O)nc1	Ramos	calcium flux, FLIPR	–	2 h preincubation	–	maximum inhibition	91.1%
CCn1cc(-c2cc(Cn3ccoc3=N)cc3c2CCN([C@@H](C)c2cc(OC)ccn2)C3=O)c(C(F)(F)F)n1	MKN-74	cell growth, inhibitor	–	120 h	–	EC50	> 30 µM
COc1ccc(C[C@@H]2c3cc(Oc4cc(C[C@@H]5c6cc(OC)c(OC)cc6CCN5C)ccc4O)c(OC)cc3CCN2C)cc1	3T3-L1	adipocyte lipid accumulation, Nile Red staining	–	10 µM	–	inhibition	42.2 ± 1%
CS(=O)(=O)CCNCc1ccc(-c2ccc3ncnc(Nc4ccc(OCc5cccc(F)c5)c(Cl)c4)c3c2)o1	iCell Cardiomyocytes (hiPSC-derived)	cellular impedance	–	concentration not given, 24 h	relative to: control	cell index	102%
CC[C@H](C)[C@H](NC(=O)[C@H](CCC(N)=O)NC(=O)CNC(=O)[C@H](Cc1c[nH]cn1)NC(=O)[C@H](CCCCN)NC(=O)[C@H](Cc1c[nH]cn1)NC(=O)[C@H](Cc1c[nH]cn1)NC(=O)CN)C(=O)N[C@@H](CCSC)C(=O)N1CCC[C@H]1C(=O)N[C@@H](CCSC)C(=O)N[C@@H](CO)C(=O)NCC(=O)NCC(=O)NCC(=O)N[C@@H](CO)C(=O)N[C@@H](CCCCNC(=O)CCCC[C@@H]1SC[C@@H]2NC(=O)N[C@@H]21)C(=O)O	U-251 (EphA2 high)	confocal microscopy	–	10 µM, 20 min, 37 °C, biotin-labelled peptide	–	binding	binds
Cc1ccc(NC(=O)c2ccc(CN3CCN(C)CC3)cc2)cc1Nc1nccc(-c2cccnc2)n1	iCell Cardiomyocytes (hiPSC-derived)	cellular impedance	–	concentration not given, 24 h	relative to: control	cell index	98.5%
COc1cc(N2CCC(N3CCN(C)CC3)CC2)ccc1Nc1ncc(Cl)c(Nc2ccccc2P(C)(C)=O)n1	Ba/F3 EML4-ALK variant 1 E1210K	cell viability	–	–	–	Emax	99.8%
Cc1cc(NS(=O)(=O)c2ccc(NC(=O)/C(C#N)=C/c3ccc(N4CCCCC4)cc3)cc2)no1	HCT-116	qRT-PCR, item: Bax	–	concentration not given	relative to: untreated	mRNA level increase	5.9 fold
COc1ccc2c(N(C)c3ccc(/C(C)=N/OCCN)cc3)c3c(Cl)coc3nc2c1	LNCaP C-81	trypan blue exclusion	–	1 µM, 72 h, SR conditions	–	growth inhibition	80 to 90% and 70 to 80%
CC(C)C[C@@H](C=O)NC(=O)[C@H](CC(C)C)NC(=O)[C@H](CC(C)C)NC(=O)OCc1ccccc1	ARPE-19 HiBiT fibulin-3	HiBiT luminescence	–	1.66 µM	–	fibulin-3 level	-55.5%
O=C(/C=C/C=C/C=C/C1CCCCC1)NC1=C[C@@](O)(/C=C/C=C/C=C/C(=O)NC2=C(O)CCC2=O)[C@@H]2O[C@@H]2C1=O	tccpan2	cell growth, inhibitor, CellTiter-Glo luminescence	–	78 h	relative to: day 0 cell count	GI50	18.7 µM
Cc1cc(Nc2ncc(Cl)c(Nc3ccccc3S(=O)(=O)C(C)C)n2)c(OC(C)C)cc1C1CCNCC1	CLB-GE	phosphoproteomics LC-MS/MS, item: RLTPR phosphorylation	–	200 nM, 60 min	relative to: untreated	log2 fold change	-3.8
Nc1ncnc2c1ncn2[C@@H]1O[C@H](CO)[C@@H](O)[C@H]1O	activated human T cells	–	–	100 nM	higher = more TNF	TNF production	5010 a.u. and 4630 a.u. and 4300 a.u.
C[C@H]1[C@@H](O)O[C@@H]2O[C@@]3(C)CC[C@H]4[C@H](C)CC[C@@H]1[C@@]24OO3	THP-1	annexin V/PI flow cytometry, item: annexin V-/PI+	–	1.6 µM, 24 h	–	necrotic cells	0.1%
O=C(Nc1c[nH]nc1-c1nc2ccc(CN3CCOCC3)cc2[nH]1)NC1CC1	ARPE-19 HiBiT fibulin-3	HiBiT luminescence	–	5 µM	–	fibulin-3 level	-37.9%
CCn1c(-c2nonc2N)nc2cncc(CNC3CCNCC3)c21	SK-OV-3	ATP	–	0.01 µM, 4 days, 3D gellan gum culture	relative to: untreated	relative cell number	98.3%
CSc1cc(Oc2ccnc3[nH]c(=O)cnc23)ccc1NC(=O)Nc1cc(C(C)(C)C)nn1-c1ccccc1	patient-derived cell lines	reverse phase protein array	–	1 µM, 4 h, mean of three patients, unit not given	relative to: DMSO	phosphorylated STAT5 level	0.61
Cc1ccc(-n2nc(C(C)(C)C)cc2NC(=O)Nc2ccc(OCCN3CCOCC3)c3ccccc23)cc1	iCell Cardiomyocytes (hiPSC-derived)	xCELLigence Cardio impedance	–	concentration not given, 2 h	relative to: control	beat rate	101%

SMILES	cell line	assay	system	setting	scale	quantity	result
c1ccc2[nH]ccc2c1	HCT-8	RNA-seq, item: GDF15	–	concentration not given	–	mRNA level, LS mean	517 counts per million
CCOc1ccc(-c2nc3cc(-c4nc5cc(N6CCN(C)CC6)ccc5[nH]4)ccc3[nH]2)cc1OCC	NCI/ADR-RES	cell growth, NCI-60 SRB	–	10 µM, 48 h	–	growth percent	104%
OC1CCN(c2ccc(/C=N/NC(=S)Nc3ccccc3)cc2)CC1	BEAS-2B and A549	MTT	–	–	relative to: IC50 BEAS-2B over IC50 A549	selectivity ratio	5
CC(C)(C)c1cnc(CSc2cnc(NC(=O)C3CCNCC3)s2)o1	iCell Cardiomyocytes (hiPSC-derived)	CellTiter-Glo	–	concentration not given, 24 h	relative to: control	ATP level	83.9%
Clc1ccc(C2(c3ccc(-c4cn[nH]c4)cc3)CCNCC2)cc1	SK-OV-3	ATP	–	10 µM, 4 days, 3D U-bottom low-attachment	relative to: untreated	relative cell number	29.2%
CCc1c(-c2ccccc2)c(-c2ccccc2)nn1-c1ccccc1-c1cccc(OCC(=O)O)c1	mouse bone marrow macrophages	osteoclast differentiation, inhibitor, TRAP staining	–	0.1 µM, added: M-CSF and RANKL	–	normalized response	74.8% and 83.6% and 94.1% and 78.8% and 99.7% and 70%
O=C(O)c1ccc(-c2c[nH]c3ncc(-c4ccccc4)cc23)cc1C1CCCC1	SK-OV-3	ATP	–	10 µM, 4 days, 3D gellan gum culture	relative to: untreated	relative cell number	101%
CC#CC(=O)N1CCC[C@H]1c1nc(-c2ccc(C(=O)Nc3ccccn3)cc2)c2c(N)nccn12	Ramos	calcium flux, FLIPR	–	4 h preincubation	–	maximum inhibition	81.1%
COc1ccc(Cc2nccc3ccccc23)cc1OC	A549	mitochondrial oxygen consumption, Seahorse XF96	–	10 µM	–	inhibition	64%
c1cnc2c(c1)ccc1cccnc12	differentiated THP-1	–	–	25 µg/mL	relative to: albendazole and praziquantel	IL-4 mRNA level	decreased
C[C@@H]1CN(C(=O)c2ccc(NC(=O)c3cc(O[C@H](C)c4c(Cl)ccc(F)c4Cl)c(N)nn3)cc2)C[C@H](C)N1	NB1 (ALK amplification, exon 2-3 deletion)	cell viability	–	–	–	Emax	81.7%
CC1(C)CNc2cc(NC(=O)c3cccnc3NCc3ccncc3)ccc21	iCell Cardiomyocytes (hiPSC-derived)	xCELLigence Cardio impedance	–	concentration not given, 2 h	relative to: control	beat rate	101%
Cn1cc(-c2ccc(-c3cncc(Cl)c3N3CCC4(CCNC4=O)CC3)cc2)cn1	COLO 205	gene expression, microarray, item: BCL2L1 mRNA	–	concentration not given, 6 h	relative to: untreated cells	log2 fold change	1.2
CO[C@@H]1[C@H](N(C)C(=O)c2ccccc2)C[C@H]2O[C@]1(C)n1c3ccccc3c3c4c(c5c6ccccc6n2c5c31)C(=O)NC4	iCell Cardiomyocytes (hiPSC-derived)	CellTiter-Glo	–	concentration not given, 24 h	relative to: control	ATP level	105%
O=C1CCC(N2Cc3c(C#CCCCNC(=O)C4CCN(C(=O)[C@@H]5NC6(CCCCC6)[C@@]6(C(=O)Nc7cc(Cl)ccc76)C5c5cccc(Cl)c5F)CC4)cccc3C2=O)C(=O)N1 (stereo in doubt)	RS4;11 (p53 wild type)	WST-8	–	concentration not given, 4 days	–	growth inhibition	inactive
COc1ccc2c(c1OC)CN1CCc3cc4c(cc3C1=C2)OCO4	KU812	–	culture supernatant	100 µM, added: A23187	–	PGD2 level	20 pg/mL
Cc1cc2c(F)c(Oc3ncnn4cc(OC[C@@H](C)O)c(C)c34)ccc2[nH]1	iCell Cardiomyocytes (hiPSC-derived)	xCELLigence Cardio impedance	–	concentration not given, 2 h	relative to: control	beat amplitude	93.1%
C=CC(=O)N1CCC[C@@H](c2ccc(C(N)=O)c3[nH]ccc23)C1	Ramos	calcium flux, FLIPR	–	1 h preincubation	–	maximum inhibition	51.4%
CC(C)(C)c1cc(/C=C2\SC(N)=NC2=O)cc(C(C)(C)C)c1O	HepaRG	ROS-Glo	–	–	–	maximal ROS response	-65.6 ± 41.1%
CCn1cc(-c2cc(Cn3ccnc3)cc3c2CCN([C@H](c2cc(OC)ccn2)C2CC2)C3=O)c(C(F)(F)F)n1	SNU-449	cell growth, inhibitor	–	120 h	–	EC50	29 µM
CCCCCCNC(=O)n1cc(F)c(=O)[nH]c1=O	SW-403	LC-MS, item: Cer(d18:1/18:0)	–	0.1 µM	–	ceramide level	0.58 ± 0.06 pmol/mg protein
Cn1cnc2c(F)c(Nc3ccc(Br)cc3F)c(C(=O)NOCCO)cc21	A549	–	–	0.07813 µM, 72 h	–	viability	74.9%
C=CC(=O)N1CCC([C@@H]2CCNc3c(C(N)=O)c(-c4ccc(Oc5ccccc5)cc4)nn32)CC1	Ramos	calcium flux, FLIPR	–	–	–	maximal inhibition	≤ 90%
CC(C)(c1ccc(O)cc1)c1ccc(O)cc1	HepG2 spheroids	Hoechst flow cytometry	–	0.10 µM, 96 h	–	G1 phase cells	74.3 ± 5.68%
C[C@H]1Oc2cc(cnc2N)-c2c(nn(C)c2C#N)CN(C)C(=O)c2ccc(F)cc21	Ba/F3 EML4-ALK variant 1 S1206F	cell viability	–	–	–	Emax	100%
CN(C)C/C=C/C(=O)Nc1cc2c(Nc3ccc(F)c(Cl)c3)ncnc2cc1O[C@H]1CCOC1	iCell Cardiomyocytes (hiPSC-derived)	CellTiter-Glo	–	concentration not given, 24 h	relative to: control	ATP level	89.5%
O=c1[nH]nc(OCCCc2ccc(Cl)cc2)c(NCc2cccnc2)c1Br	HEK-293T	RNA-seq GSEA, item: HALLMARK_UV_RESPONSE_UP	–	concentration not given	direction not given	normalized enrichment score	-1.43

For quick reference, copied from above:
SMILES	cell line	assay	system	setting	scale	quantity	result
COc1cnc2cccc(N3CCc4c(cc(Cn5ccnc5C)cc4-c4cn(C)nc4C(F)(F)F)C3=O)c2c1	DB	cell growth	–	120 h	–	EC50	5.32 µM
C=CC(=O)N1CCC([C@@H]2CCNc3c(C(N)=O)c(-c4ccc(Oc5ccccc5)cc4)nn32)CC1	Ramos	calcium flux, FLIPR	–	–	–	maximal inhibition	≤ 90%
C[C@H]1Oc2cc(cnc2N)-c2c(nn(C)c2C#N)CN(C)C(=O)c2ccc(F)cc21	Ba/F3 EML4-ALK variant 1 S1206F	cell viability	–	–	–	Emax	100%
